# Measurements from different studies.
# Protocols differ between the studies behind these lines.
# Target: Ephrin type-B receptor 3 (EPHB3, Homo sapiens, UniProt P54753)
Compound,test,conditions,how to read,endpoint,result
Cc1cccc(-c2ccc3nc(NC(=O)C4CCOCC4)nn3c2)c1,"enzyme activity, Dundee kinase panel",10 µM,,remaining activity,78%
COc1c(Cl)cccc1Nc1c(-c2ccncc2C#C[C@@]2(C)CCCN2C(=O)/C=C/CN(C)C)[nH]c2c1C(=O)NCC2,"cell-free assay, competition with immobilised ligand",3 µM,,remaining binding,99%
CN1CCN(Cc2ccc(-c3ccc(CO[C@H]4CCC[C@@H]4NC(=O)c4cc(-c5cnn(C)c5)cnc4N)cc3)cc2)CC1,"enzyme activity, inhibitor",0.1 µM,,inhibition,2%
Cc1nc2c(F)cc(-c3nc(Nc4ccc(CNC(=O)CCCCCCC(=O)NO)cc4)ncc3F)cc2n1C(C)C,"enzyme activity, inhibitor",1 µM,,inhibition,27%
Cc1ccc(C)c(-c2ccc3nc(NC(=O)C4CCCCC4)nn3c2)c1,"enzyme activity, Dundee kinase panel",10 µM,,remaining activity,82%
CCn1cc(C(=O)O)c(=O)c2c(N)c(F)c(NC3CCCCC3)cc21,kinase activity,"0.1 µM, added: ATP at Km",,inhibition,8.6%
Nc1nc(Nc2ccccc2)sc1C(=O)c1ccccc1,"enzyme activity, inhibitor",10 µM,,remaining activity,78%
Nc1ncc(-c2cc(-c3cnn(CC(F)(F)F)c3)ncc2F)nc1C(=O)NC1CNCC(F)C1 (stereo not drawn),enzyme activity,1 µM,reference: DMSO control,remaining activity,97.1%
CC(C)=CC1OC(C)(C)C2C=C3C(=O)C(Cl)=CC(O)C3C3C(O)C4OC4C(=O)C132 (stereo not drawn),"cell-free assay, competition with immobilised ligand",10 µM,,remaining binding,89%
C=CC(=O)N1Cc2nc(-c3cc(-c4cc(Cl)cnc4Cl)c(F)cc3F)n(-c3ccncn3)c2C1,cell-free assay,1 µM,,inhibition,3.6%
O=C=[N][Ru-4]123([n]4c5ccc(O)cc5c5c6c(c7cc(F)c[n+]1c7c54)C(=O)NC6=O)[S+]1CC[S+]2CC[S+]3CC1 (stereo not drawn),enzyme activity,"100 nM, human enzyme, added: 10 µM ATP",reference: untreated,remaining activity,109%
CNC(=O)C[C@H](Cc1ccc(C#N)cc1)NC(=O)c1cc(-c2ccc(CN[C@H](C)c3ccc(C)cc3)o2)ccc1Cl,"enzyme activity, inhibitor",1 µM,,activity vs control,98%
NC(=O)[C@@H](O)C[C@H]1CCc2sc3ncnc(O[C@H]4CC[C@H](N5CCOCC5)CC4)c3c21,"enzyme activity, inhibitor",10 µM,,inhibition,12%
CN1CC[C@@H](COc2cnc(C#N)cc2-c2ccn3nc(NC(=O)C4CC4)cc3c2)C1,"enzyme activity, inhibitor",1 µM,,inhibition,1%
COc1c(OCCCN2CCOCC2)ccc2c1N=C(NC(=O)c1cnc(N)nc1)N1CCN=C21,"kinase activity, inhibitor",1 µM,reference: untreated control,remaining activity,96%
Cc1cccc(O[C@H]2CCC[C@@H](C(C)CNCc3ccncc3)C2)c1 (relative stereo),cell-free assay,10 µM,,inhibition,-6%
C=CC(=O)Nc1cccc(-c2cnc3[nH]cc(C(=O)NC(C)(C)C)c3n2)c1,"enzyme activity, inhibitor",0.1 µM,,inhibition,1%
COc1cc(Nc2nccc(-c3cnn4nc(OC)ccc34)n2)cc(C(F)(F)F)c1,"binding, competition with immobilised ligand",1 µM,,remaining binding,98%

# A few entries again:
Compound,test,conditions,how to read,endpoint,result
Cc1nc2c(F)cc(-c3nc(Nc4ccc(CNC(=O)CCCCCCC(=O)NO)cc4)ncc3F)cc2n1C(C)C,"enzyme activity, inhibitor",1 µM,,inhibition,27%
